Experimental data pooled from the literature.
Numbered parts are unrelated; each lists some results of a single study.
Sequence of UniProt P36896 (whole entry, looked up): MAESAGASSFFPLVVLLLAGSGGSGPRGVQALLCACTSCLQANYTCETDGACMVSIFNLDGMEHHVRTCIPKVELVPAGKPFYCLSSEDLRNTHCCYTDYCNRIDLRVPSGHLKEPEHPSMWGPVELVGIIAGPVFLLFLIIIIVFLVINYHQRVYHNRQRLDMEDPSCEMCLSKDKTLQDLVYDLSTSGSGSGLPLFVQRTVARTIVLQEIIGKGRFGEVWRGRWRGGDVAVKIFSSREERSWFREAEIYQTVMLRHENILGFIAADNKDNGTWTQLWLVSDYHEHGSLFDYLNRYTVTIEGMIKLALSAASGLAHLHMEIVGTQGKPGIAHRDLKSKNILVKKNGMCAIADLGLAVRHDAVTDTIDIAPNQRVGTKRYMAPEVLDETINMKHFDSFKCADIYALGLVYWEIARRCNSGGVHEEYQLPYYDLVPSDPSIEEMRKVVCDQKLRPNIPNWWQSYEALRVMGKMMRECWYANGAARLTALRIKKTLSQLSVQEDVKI
Sequence of UniProt Q6P3R8 (whole entry, looked up): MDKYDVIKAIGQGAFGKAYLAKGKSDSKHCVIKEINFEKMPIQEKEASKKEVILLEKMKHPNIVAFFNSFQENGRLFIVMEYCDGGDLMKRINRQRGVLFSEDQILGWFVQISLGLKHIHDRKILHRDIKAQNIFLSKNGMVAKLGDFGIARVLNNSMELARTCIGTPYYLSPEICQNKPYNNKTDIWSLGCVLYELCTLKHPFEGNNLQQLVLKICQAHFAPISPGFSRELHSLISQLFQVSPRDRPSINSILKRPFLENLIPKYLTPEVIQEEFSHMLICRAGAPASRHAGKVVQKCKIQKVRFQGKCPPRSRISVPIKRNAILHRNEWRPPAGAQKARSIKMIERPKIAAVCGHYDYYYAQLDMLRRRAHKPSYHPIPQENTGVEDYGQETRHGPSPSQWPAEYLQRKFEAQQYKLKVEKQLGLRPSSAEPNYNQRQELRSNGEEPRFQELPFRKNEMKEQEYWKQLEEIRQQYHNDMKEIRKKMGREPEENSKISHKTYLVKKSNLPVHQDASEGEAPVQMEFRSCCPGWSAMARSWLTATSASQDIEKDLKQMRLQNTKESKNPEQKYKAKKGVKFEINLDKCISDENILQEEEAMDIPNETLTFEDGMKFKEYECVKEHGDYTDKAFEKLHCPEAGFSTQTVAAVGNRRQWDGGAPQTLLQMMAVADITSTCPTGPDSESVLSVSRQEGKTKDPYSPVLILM
Sequence of UniProt P29597 (whole entry, looked up): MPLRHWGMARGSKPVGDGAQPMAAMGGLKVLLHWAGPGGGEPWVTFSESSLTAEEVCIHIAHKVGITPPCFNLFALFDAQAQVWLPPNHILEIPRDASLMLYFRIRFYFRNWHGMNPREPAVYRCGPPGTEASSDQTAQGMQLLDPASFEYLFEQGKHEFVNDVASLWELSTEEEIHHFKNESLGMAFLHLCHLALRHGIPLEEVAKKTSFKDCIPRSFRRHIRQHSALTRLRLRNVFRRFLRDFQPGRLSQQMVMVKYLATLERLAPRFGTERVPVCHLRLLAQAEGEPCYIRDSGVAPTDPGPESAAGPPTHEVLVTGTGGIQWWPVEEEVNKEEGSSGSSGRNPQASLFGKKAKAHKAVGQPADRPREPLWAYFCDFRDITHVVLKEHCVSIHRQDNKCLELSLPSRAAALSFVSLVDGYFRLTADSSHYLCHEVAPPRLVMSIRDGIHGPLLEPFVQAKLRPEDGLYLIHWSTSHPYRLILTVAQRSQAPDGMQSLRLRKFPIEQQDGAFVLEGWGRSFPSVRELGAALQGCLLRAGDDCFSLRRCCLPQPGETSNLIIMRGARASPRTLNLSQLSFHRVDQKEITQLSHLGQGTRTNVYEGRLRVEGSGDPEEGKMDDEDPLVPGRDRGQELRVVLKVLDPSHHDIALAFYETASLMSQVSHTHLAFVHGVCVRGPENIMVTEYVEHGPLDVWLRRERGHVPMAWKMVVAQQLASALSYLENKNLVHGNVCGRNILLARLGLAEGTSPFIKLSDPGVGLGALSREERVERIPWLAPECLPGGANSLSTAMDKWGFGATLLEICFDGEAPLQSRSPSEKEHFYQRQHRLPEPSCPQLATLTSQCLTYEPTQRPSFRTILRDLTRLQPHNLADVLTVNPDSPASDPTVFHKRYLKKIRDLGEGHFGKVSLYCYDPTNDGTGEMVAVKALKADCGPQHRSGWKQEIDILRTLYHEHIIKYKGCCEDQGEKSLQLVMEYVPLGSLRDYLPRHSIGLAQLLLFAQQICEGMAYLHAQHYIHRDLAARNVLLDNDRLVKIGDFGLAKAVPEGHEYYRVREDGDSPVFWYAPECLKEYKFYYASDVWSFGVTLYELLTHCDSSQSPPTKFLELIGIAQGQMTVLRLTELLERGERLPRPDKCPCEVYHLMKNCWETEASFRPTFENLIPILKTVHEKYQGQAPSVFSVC
Sequence of UniProt O94806 (whole entry, looked up): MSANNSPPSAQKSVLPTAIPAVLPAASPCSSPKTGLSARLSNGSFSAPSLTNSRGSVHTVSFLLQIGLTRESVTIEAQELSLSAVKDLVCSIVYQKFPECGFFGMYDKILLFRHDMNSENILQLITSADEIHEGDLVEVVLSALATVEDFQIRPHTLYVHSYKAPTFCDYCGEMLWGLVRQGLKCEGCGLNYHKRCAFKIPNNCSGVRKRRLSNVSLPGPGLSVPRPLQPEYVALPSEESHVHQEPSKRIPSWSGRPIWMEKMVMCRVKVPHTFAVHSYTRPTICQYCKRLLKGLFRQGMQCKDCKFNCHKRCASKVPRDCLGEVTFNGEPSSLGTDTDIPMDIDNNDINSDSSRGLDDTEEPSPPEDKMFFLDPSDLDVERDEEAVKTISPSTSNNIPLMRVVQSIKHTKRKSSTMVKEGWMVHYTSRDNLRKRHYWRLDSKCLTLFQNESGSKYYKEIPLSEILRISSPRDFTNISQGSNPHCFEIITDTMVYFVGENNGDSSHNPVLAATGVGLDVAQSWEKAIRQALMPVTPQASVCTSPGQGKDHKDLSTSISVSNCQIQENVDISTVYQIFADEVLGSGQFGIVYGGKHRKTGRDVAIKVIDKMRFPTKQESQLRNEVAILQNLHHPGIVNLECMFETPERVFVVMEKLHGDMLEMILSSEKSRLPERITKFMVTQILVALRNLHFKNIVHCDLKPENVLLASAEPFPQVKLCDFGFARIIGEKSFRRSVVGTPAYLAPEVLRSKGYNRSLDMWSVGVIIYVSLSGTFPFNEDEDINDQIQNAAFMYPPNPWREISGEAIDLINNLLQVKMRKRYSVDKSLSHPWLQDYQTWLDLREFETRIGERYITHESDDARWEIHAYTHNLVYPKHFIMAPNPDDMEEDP
Sequence of UniProt Q9HBH9 (whole entry, looked up): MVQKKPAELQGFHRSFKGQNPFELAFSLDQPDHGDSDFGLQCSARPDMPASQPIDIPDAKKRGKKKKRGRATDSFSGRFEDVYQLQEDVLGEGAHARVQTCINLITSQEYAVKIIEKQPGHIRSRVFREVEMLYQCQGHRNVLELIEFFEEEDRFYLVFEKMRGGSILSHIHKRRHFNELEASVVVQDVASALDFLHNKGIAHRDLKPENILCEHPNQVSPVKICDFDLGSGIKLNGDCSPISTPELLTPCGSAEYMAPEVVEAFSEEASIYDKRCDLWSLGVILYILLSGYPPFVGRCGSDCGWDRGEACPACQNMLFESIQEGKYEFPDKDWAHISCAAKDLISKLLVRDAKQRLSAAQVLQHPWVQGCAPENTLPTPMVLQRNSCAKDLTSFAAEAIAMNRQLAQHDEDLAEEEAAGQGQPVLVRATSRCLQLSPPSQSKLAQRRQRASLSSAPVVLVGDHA
Sequence of UniProt Q15349 (whole entry, looked up): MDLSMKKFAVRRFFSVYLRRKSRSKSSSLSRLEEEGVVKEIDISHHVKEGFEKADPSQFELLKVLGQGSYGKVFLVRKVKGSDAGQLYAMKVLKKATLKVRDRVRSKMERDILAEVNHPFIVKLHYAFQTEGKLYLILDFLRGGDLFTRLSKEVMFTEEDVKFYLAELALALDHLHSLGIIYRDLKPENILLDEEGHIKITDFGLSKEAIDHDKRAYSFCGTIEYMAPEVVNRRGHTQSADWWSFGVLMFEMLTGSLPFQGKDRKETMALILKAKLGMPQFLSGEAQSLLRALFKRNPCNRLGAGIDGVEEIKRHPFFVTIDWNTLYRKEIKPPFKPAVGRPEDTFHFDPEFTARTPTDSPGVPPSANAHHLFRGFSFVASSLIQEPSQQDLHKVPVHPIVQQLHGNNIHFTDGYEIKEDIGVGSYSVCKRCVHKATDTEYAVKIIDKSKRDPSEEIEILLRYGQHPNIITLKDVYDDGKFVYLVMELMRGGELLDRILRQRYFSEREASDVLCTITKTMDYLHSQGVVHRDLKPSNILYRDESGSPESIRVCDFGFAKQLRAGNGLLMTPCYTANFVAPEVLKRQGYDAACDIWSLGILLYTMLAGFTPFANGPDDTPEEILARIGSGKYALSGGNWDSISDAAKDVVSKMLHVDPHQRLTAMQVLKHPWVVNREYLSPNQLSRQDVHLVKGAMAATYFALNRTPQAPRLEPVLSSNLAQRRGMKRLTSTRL

Block 1
Compound: O=S(=O)(NC1CCC(c2cc(F)ccc2F)(S(=O)(=O)c2ccc(Cl)cc2)CC1)C(F)(F)F (centres unmarked)
Effect on: cell-free assay
Technique: competition with immobilised ligand
Tested at: 1 µM
It gave 100% for remaining binding (PRKD3 (Homo sapiens, UniProt O94806)).
STK11 (Homo sapiens, UniProt Q15831) — remaining binding: 100%.
MKNK2 (Homo sapiens, UniProt Q9HBH9) — remaining binding: 57%.
CDK13 (Homo sapiens, UniProt Q14004) — remaining binding: 92%.
For FLT3 (Homo sapiens, UniProt P36888, D835H): remaining binding read 90%.
CHUK (Homo sapiens, UniProt O15111) — remaining binding: 100%.
For ACVR1B (Homo sapiens, UniProt P36896): remaining binding read 87%.
The remaining binding was 100% (Non-receptor tyrosine-protein kinase TYK2, JH1 (TYK2, Homo sapiens, UniProt P29597)).
It gave 100% for remaining binding (NEK5 (Homo sapiens, UniProt Q6P3R8)).
The remaining binding was 69% (HASPIN (Homo sapiens, UniProt Q8TF76)).
It gave 93% for remaining binding (EGFR (Homo sapiens, UniProt P00533, T790M)).
For MAP3K3 (Homo sapiens, UniProt Q99759): remaining binding read 100%.
For Ribosomal protein S6 kinase alpha-6, C-terminal kinase domain (RPS6KA6, Homo sapiens, UniProt Q9UK32): remaining binding read 90%.
For Ribosomal protein S6 kinase alpha-2, N-terminal kinase domain (RPS6KA2, Homo sapiens, UniProt Q15349): remaining binding read 100%.
FLT3 (Homo sapiens, UniProt P36888, D835V/ITD) — remaining binding: 97%.
For BMPR2 (Homo sapiens, UniProt Q13873): remaining binding read 100%.
The remaining binding was 100% (TAOK3 (Homo sapiens, UniProt Q9H2K8)).

Block 2
Target: Probable WRKY transcription factor 33, N-terminal DNA-binding domain (WRKY33, Arabidopsis thaliana, UniProt Q8S8P5, residues 169-264)
Technique: DNA-protein interaction ELISA
Molecule type: double-stranded DNA, one strand shown
Medium: in vitro, bacterial lysate
Tested at: not given
Notes: whole dsDNA probe, crude lysate protein
Reference: highest signal in screen
Direction: higher = stronger binding
Construct (chain): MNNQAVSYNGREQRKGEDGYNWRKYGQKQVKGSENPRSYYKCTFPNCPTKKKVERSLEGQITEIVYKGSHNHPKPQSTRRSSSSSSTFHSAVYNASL
`AAAAAATGCCATTGTACCTGTGTTCGAAAA` has a relative absorbance of 25.2 % of maximum.
The relative absorbance of `AAAAAATACGTCTACGTGGTTGTCGTAAAA` is reported as 20.1 % of maximum.
`AAAAAATATCTGATCCAATTTAGGTCAAAA` has a relative absorbance of 24.3 % of maximum.
`AAAAAATAAACGTGTTCATACTTAGTAAAA` gave a relative absorbance of 15.9 % of maximum.
With `AAAAAAAGTTCCAGGTCCGATGCTCAAAAA` the relative absorbance was 16.7 % of maximum.
`AAAAAATGTTTTTTAGAGGTGTGCAAAAAA` has a relative absorbance of 21.6 % of maximum.
For `AAAAAACCCCAGATTTCCAGCAGTTCAAAA`, the relative absorbance was 21.1 % of maximum.
With `AAAAAATTTGTTCGGGCTCATAACTGAAAA` the relative absorbance was 23.5 % of maximum.

Block 3
Target: Ras GTPase-activating protein-binding protein 1, C-terminal RGG region (G3BP1, Homo sapiens, UniProt Q13283)
Sequence of UniProt Q13283 (whole entry, looked up): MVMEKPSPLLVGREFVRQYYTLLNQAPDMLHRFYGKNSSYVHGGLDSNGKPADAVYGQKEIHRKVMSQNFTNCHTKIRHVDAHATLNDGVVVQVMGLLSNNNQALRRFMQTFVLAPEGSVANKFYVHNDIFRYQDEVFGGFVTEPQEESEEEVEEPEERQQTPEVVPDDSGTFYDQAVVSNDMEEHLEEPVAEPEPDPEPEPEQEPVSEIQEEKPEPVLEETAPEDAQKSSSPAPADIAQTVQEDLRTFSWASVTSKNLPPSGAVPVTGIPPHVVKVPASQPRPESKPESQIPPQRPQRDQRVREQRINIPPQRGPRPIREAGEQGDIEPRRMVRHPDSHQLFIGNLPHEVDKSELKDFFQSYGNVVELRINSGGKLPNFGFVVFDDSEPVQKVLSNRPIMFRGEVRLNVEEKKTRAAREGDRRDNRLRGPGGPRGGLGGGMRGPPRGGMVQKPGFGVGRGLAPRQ
Technique: RNA Bind-n-Seq
Molecule type: RNA
Medium: in vitro
Tested at: 1 µM
Notes: whole 134-nt RNA, ends assumed
Together with: 150 mM KCl
Reference: input library
Direction: higher = stronger binding
For `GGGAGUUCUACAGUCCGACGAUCUCAAGUCCUGUGCUACACAUCGUAUGUACCGAAUCGGGGCCGGGCCGGGCCGGGGAAAGUAUUAUGUUACGCCGUUCGGAUCUGCACUUCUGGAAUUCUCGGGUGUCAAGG`, the log2 enrichment was -0.0689.
`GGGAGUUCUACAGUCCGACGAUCCAAGUCCUGUGCUACACAUCGUAUGUACCGAAUCGGGCCCGGGGCCCGGGCCCGGGAAAGUAUUAUGUUACGCCGUUCGGAUCUGCACUUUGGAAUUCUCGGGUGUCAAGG` has a log2 enrichment of -2.25.
`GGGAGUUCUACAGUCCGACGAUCUGGCCCUGGUGGCAUGCGGGGAGGAAGACGUGGCCUCAUGGAUCGUGGUGGUCCCGGUGGAAUGUUCAGAGGUGGCCGUGGUGGAGACAGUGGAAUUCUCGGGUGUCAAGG` has a log2 enrichment of 1.98.
For `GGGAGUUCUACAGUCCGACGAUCCACAGACAACACGCACCCACACAGACACAGAGGGAAAAGGUUGGGAUGGGGACAGGGUGCACAGCAGGGCGGGGUAGGACCCCAGCCCCUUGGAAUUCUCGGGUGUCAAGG`, the log2 enrichment was -0.16.
The log2 enrichment of `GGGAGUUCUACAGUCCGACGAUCUCCUCAAGUCCUGUGCUACACAUCGUAUGUACCGAAUCGGUGGUGGGUGGGGAAAGUAUUAUGUUACGCCGUUCGGAUCUGCACUUCCAGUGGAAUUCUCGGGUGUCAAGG` is reported as 0.412.
With `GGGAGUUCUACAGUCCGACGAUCACCAUGCAGGUGGGCAUCUUUGGGAAGUGGGGCAAGGGGGGGAUAGGGAGGGGGGUAACACAAAGGGAACAGGUGGUCCCAGGUCGUUUCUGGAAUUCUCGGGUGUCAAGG` the log2 enrichment was -1.18.
For `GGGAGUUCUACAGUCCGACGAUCUAAAUUCAUCUGAAAAUGGUGAGGACAGGCACAAACGCAAAGAAAGAAAGUCAUCAAGAGGCAGAAGUCACUCAAGAUCUAGGUCUCGUGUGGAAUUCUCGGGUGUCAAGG`, the log2 enrichment was -2.51.
The log2 enrichment of `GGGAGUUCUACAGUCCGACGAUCUAUGAGGAUGAGUUGGUGCCCCUUUUUGAGAAGGCCGGACCCAUUUGGGAUCUACGUCUUAUGAUGGAUCCACUGUCCGGUCAGAAUAGAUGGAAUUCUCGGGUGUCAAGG` is reported as -0.814.

Single results of other studies
`O=C(Nc1cnn(-c2csc(C(=O)NC3COC3)c2)c1)Nc1c(F)cccc1Cl` gave a remaining activity of 89.2% (PKMYT1 (Homo sapiens, UniProt Q99640); enzyme activity; 5 µM; reference: untreated control).
`CCC1CC(=O)c2c(Cl)cccc2N1S(=O)(=O)c1ccc2ccccc2c1` (centres unmarked) gave a remaining compound of 2.03% (mouse, microsomes or S9; 2 µM, 0.5 h).
